Experimental data from different studies.
Numbered parts are unrelated; each lists some results of a single study.

Block 1
Target: Histone acetyltransferase KAT6A, winged helix 2, GST fusion (KAT6A, Homo sapiens, UniProt Q92794, residues 85-181)
Method: protein binding microarray
Form: double-stranded DNA, one strand shown
Matrix: in vitro
Concentration: not given
Notes: 8-mer, flanks averaged, mean of 2 arrays, mostly near background
Reference: not given
Reading: higher = stronger binding
Quantity: E-score
Construct (chain): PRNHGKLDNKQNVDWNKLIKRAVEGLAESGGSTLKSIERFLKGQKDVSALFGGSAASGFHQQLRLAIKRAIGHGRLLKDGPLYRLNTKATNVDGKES
ACCGGAGT: -0.0234
CACGGTTC: -0.231
ACTCTTCG: -0.129
AGACCAGA: -0.105
ACACTTGA: 0.00013
AACACATG: 0.0351
ACAGACGG: -0.117
GCTTCAAC: -0.13
AACTTCCT: 0.0146
ATGAGCTG: -0.00945
CCCAGCTC: -0.0595
TAAGCCGA: 0.116
GACCGAGC: 0.0969
ACTACATG: -0.127
TGTGAGAA: -0.116
AGTCAACT: -0.168
CATACCAG: 0.00464
ATATGGTC: -0.0669
TGGATAAA: 0.109
GCACGCAA: 0.0879
AAGGTTAC: 0.0391
GACGGAGA: 0.0254
AGAGCTTC: 0.0482
CTGGCACC: -0.0577
GACGGAAC: -0.0326

Block 2
Target: Centromere-binding protein 1, full length, N-terminal tag (CBF1, Saccharomyces cerevisiae, UniProt P17106, residues 1-351)
Chain of UniProt P17106 (whole entry, looked up): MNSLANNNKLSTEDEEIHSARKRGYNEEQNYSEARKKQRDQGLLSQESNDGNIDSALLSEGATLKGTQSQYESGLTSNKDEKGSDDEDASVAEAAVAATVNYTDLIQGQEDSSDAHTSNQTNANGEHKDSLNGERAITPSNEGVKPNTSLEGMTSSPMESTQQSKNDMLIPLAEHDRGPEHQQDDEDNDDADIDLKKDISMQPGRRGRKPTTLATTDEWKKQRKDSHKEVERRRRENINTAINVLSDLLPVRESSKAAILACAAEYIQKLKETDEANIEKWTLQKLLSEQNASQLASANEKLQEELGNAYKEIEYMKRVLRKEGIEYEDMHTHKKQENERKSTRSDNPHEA
Method: protein-binding microarray
Form: double-stranded DNA, one strand shown
Matrix: in vitro
Concentration: 0.8 µM
Notes: whole 60-bp probe, no competitor
Reading: higher = stronger binding
Quantity: fluorescence intensity
CTATATTTATGGCATCACGATTATTCTCACCAGTTCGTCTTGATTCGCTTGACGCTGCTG: 625 a.u.
GAAAATGCAATTAGTCAGGTGGAATCTAATATCTAGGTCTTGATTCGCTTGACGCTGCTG: 928 a.u.
GAAATACTTTATTGTCATGAGACCACTCAACAGTAGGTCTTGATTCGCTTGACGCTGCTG: 906 a.u.
TGTACGAAGCTATCTAGCGTGGTTATAGTAGTTAGGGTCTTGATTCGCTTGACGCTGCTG: 553 a.u.
GAAGATAGAGATATTCACCTGGTGATTCGGTAGTAGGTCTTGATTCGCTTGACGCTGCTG: 578 a.u.
GAAGATAGTTAGCCCCACGATAAAACTTAGCAGTAGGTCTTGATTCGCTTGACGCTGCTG: 546 a.u.
GAACAATTCTTTGACATCAGCAGCACGCTGCTATAGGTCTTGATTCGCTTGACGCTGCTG: 554 a.u.
TGTACGAAGCTATTGCGCACTCTTATAGTAGTTAGGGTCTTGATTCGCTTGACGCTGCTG: 501 a.u.
GAAAATAATAGTAATGGCGTGAGCCTATGTGTATAGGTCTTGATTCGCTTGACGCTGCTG: 527 a.u.
CTAGAGACATGATCGGTCGTGATTATCTTGTTGTTCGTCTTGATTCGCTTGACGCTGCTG: 594 a.u.
CTAGCGATGAATTTTTGGGTGATGAATGAAACATTCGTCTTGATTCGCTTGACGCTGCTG: 497 a.u.
CTAGCTATACCGGTGATCACAAGACGTAGTTACTTCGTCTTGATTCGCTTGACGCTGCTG: 1160 a.u.
CTAGAAAATCGCTCCCGCGTGTCTACTGGACTTTTCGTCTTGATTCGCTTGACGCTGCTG: 536 a.u.
CTATTAATAGTGATACATGTGCTCAATTACGGTTTCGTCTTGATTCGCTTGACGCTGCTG: 1320 a.u.
GAATCTCCTCTCACTCACGTACGGCTCTTAATTTAGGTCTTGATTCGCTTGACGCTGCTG: 500 a.u.
CTACAATCACCGTGTCACCCAAATCGATAATGTTTCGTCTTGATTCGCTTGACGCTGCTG: 554 a.u.
CTATAACTTGACTCGCACATGCCTGCTGGGTCATTCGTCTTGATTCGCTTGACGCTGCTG: 579 a.u.
GAACAAAACATAGTTTGCGTGATAACAGCGTGTTAGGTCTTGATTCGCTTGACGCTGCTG: 520 a.u.
GAACTCACTTTCTGTCACGTGCTCGCATTGCGATAGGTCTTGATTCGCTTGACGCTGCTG: 20800 a.u.
GAACAACTGGTTTATATCGTGAGTTCTTGGCAGTAGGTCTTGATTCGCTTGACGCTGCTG: 569 a.u.

Block 3
Target: RNA binding protein fox-1 homolog 2, RRM domain, GST-SBP tag (RBFOX2, Homo sapiens, UniProt O43251-10, residues 100-194)
Method: RNA Bind-n-Seq
Form: RNA
Matrix: in vitro
Concentration: 365 nM
Notes: natural RNA segment, single round, ends assumed
Reference: no-protein control
Reading: higher = stronger binding
Quantity: RBNS enrichment (R)
Residues (chain): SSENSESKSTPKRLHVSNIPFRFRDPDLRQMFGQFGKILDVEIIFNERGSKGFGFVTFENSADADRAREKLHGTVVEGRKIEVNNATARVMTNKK
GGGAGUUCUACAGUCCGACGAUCAUGCAAAGGUUUCACUGAAAAUUUAAAUCAAAACAAAACAAAAACAAAGACCUUGUUACACAGAGAGCCUCCGAUAUCCUAAGUAGGGAGGACACUGUCAGUAGGGAACGUGGAAUUCUCGGGUGCCAA: 0.507
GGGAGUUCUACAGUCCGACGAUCGCAGGACCUCACUUGCCAGUAGAACCCACAGAACAGGUAUGGCCUAGGAUGCUGUCAGCCUGAGAGUGAAAGUGGGCACUCAUUUCUCCUGGUUUUUGAAGAGCCUGUUAUGGAAUUCUCGGGUGCCAA: 6.49
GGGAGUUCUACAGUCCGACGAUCCCAGCCCCAGCCAGCCCCAGCGGCUCUGGCUGUCCACAAGCCAGGCAGAGAACUCAGGAGCUCUGCACUCAACGCCCCUGCUGCCUCGCCCCCUCCCUGACAGGUGUCUUUGGAAUUCUCGGGUGCCAA: 0.405
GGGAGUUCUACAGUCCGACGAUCGAGAAGCCUUUUGCCUGGAUAGGAGGGGGCUCUCCCAGGCAUAGGCUUGUGGCCACUUGCCCAGCACAACUGUGUUUUGUGGGGCGUCUUUUAGGACUUAGCAGAGCUGAUGGAAUUCUCGGGUGCCAA: 0.707
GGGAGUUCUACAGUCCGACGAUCUGAGGCCUGAGUUUUCUGGCUCUUAAAGCAUAGAUCAUUUCACCUGAUGUUUUUGAAGCAUCCUAAGUACAGUAGAGUAGAAAACUGAUUUCUUUGUUAAUUGUACACUGUGGAAUUCUCGGGUGCCAA: 0.355
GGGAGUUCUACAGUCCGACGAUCUUAUGAAAACAGAUGCCCCCGUGAAUGCUUACCUGUGAGAUAACCACAACCAGGAAGAACAAAUCUGGGCAUUGAGCAAGCUAUGAGGGUCCCCGGGAGCACACGAACCCUGGAAUUCUCGGGUGCCAA: 0.568
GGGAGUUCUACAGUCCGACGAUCAGCUGUGUGCGUGUGAAUUUAUACUGUUUCAAAAAUUUCAAAUGCAUGGUAGCAUGUAGAAAGGUUUUUGUUACUAUGUGUGUGUGUGUGUUUUGUUUUGUUUUGUUCUGUGGAAUUCUCGGGUGCCAA: 0.865
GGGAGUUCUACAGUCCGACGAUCUUUGAUAAAGAUUUUAAUUUAUGUAAAACUUCUAAAGCAGAAUCAAAGCUCCUCUUGGGGAAAUGGCAAGUCUUUAGGAUAGGCAAGACCCUGUAUGAAUAGUACCAAAGUGGAAUUCUCGGGUGCCAA: 0.522
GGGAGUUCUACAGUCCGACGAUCCAGUAACCAUACCGAUCAAAUUCCCAGGGACAUUCUGUCAUUGCAGUAGCUCAGACCUGUCUUUUCUUGCACACCAGCUGUGCUCUUGAGAAAAUGUAAAGGCUGCCAUUUGGAAUUCUCGGGUGCCAA: 0.309
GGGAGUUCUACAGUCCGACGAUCAAAUAGCAGCUGUUGUUUCUCUUUGGAAAGUGACAGCAGAAGUUGGUGGCAUGGGACUUUUUGUCCUUGGACACAAACCUGCAGAUCCUAGGAGUAAUAGUUUCCCCCAAUGGAAUUCUCGGGUGCCAA: 0.241
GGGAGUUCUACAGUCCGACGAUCACAGCCGUUCCCCAGGGUCUGAAACUUACCUGUCACGCACAGGUAGAGCAGUGCUAGCUAGCAUUACUGGCUUCCUGCUACUUUUUCGUUUUUUUAAAUUUUUUAUUCUGUGGAAUUCUCGGGUGCCAA: 0.3
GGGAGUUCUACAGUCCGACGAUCUCAAACCUGUGUCUCGCUCUAUAUGCACUUUGUUUACUCUUUAUACAAUAAACAUACUAAAGACUUCCAUGCAUAUGCCUUUUAAUAUUAAGCUUGCAUCUUGAAAAGCAUGGAAUUCUCGGGUGCCAA: 17.4

Block 4
Target: Ras GTPase-activating protein-binding protein 1, full length (G3BP1, Homo sapiens, UniProt Q13283)
Chain of UniProt Q13283 (whole entry, looked up): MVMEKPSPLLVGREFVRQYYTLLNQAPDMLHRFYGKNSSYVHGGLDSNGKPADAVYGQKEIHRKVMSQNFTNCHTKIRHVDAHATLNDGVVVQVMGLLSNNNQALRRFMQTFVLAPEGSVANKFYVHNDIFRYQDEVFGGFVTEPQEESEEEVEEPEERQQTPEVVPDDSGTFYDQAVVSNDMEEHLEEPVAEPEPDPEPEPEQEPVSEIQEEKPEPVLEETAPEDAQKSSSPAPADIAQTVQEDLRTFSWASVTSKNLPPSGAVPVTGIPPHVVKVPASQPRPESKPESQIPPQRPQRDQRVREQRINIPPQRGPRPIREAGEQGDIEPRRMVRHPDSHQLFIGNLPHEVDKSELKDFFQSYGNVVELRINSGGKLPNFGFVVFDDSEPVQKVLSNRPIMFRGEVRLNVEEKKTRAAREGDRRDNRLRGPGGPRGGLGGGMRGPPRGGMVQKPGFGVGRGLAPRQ
Method: RNA Bind-n-Seq
Form: RNA
Matrix: in vitro
Concentration: 200 nM
Notes: whole 134-nt RNA, ends assumed
Together with: 150 mM LiCl
Reference: input library
Reading: higher = stronger binding
Quantity: log2 enrichment
All molecules: 7-deaza-guanosine replaces G
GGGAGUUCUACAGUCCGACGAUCAAGUCCUGUGCUACACAUCGUAUGUACCGAAUCGGGUUUUGGUUUUGGGGUUUUGGAAAGUAUUAUGUUACGCCGUUCGGAUCUGCACUUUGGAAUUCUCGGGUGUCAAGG: -0.373
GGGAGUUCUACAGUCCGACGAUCUUUACCCCUCACUGGAGUCAGAUGAAGACAACCCCAUCUUUAAGUCCCGGUCGAAGAAAAGGAAAGGCUCAGACGACGCUCCCUACAGCCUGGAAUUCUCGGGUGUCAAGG: -1.08
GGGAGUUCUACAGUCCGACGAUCUCAAGUCCUGUGCUACACAUCGUAUGUACCGAAUCGGUUUUUGGAAAGGAAAGGAAAGUAUUAUGUUACGCCGUUCGGAUCUGCACUUCCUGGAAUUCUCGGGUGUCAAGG: -0.219
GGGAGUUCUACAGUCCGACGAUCCUGUGCUACACAUCGUAUGUACCGAAUCGGGGCCCCCCGGGGCCCCCCGGGCCCCCCGGGGAAAGUAUUAUGUUACGCCGUUCGGAUCUGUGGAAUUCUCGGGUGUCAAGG: -1.77
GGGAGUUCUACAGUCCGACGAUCAAGUCCUGUGCUACACAUCGUAUGUACCGAAUCGGGCCCCGGCCCCGGGCCCCGGGAAAGUAUUAUGUUACGCCGUUCGGAUCUGCACUUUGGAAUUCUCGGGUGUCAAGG: -2.03
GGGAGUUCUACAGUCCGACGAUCAGUCCUGUGCUACACAUCGUAUGUACCGAAUCGGGAAAAAGGGUGGGAAAAAAAGGGAAAGUAUUAUGUUACGCCGUUCGGAUCUGCACUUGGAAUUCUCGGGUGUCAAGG: -0.634
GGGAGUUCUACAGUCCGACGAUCUGGCCCUGGUGGCAUGCGGGGAGGAAGACGUGGCCUCAUGGAUCGUGGUGGUCCCGGUGGAAUGUUCAGAGGUGGCCGUGGUGGAGACAGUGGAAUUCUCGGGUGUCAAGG: 0.286
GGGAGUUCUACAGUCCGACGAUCACCAUGCAGGUGGGCAUCUUUGGGAAGUGGGGCAAGGGGGGGAUAGGGGGGGGGGUAACACUUUGGGAACAGGUGGUCCCAGGUCGUUUCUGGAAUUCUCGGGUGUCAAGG: -0.144
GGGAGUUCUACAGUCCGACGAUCCACAGACAACACGCACCCACACAGAGACAGAGGGAAGGGGUUGGGAUGGGGACAGGGUGCACAGCAGGGCGGGGUAGGACCCCAGCCCCUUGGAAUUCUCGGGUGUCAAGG: 0.823
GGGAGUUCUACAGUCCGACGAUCUUAAUGAUAUAAGUAGAGAGUAGUAUCCUGGUGGAGUUGUAACCACUAUUUUUGUUUUCUAGAUCCCUAUGGUUCAGGAGGCCAGAAAUUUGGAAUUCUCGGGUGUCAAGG: -1.49
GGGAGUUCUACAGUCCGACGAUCGUCCUGUGCUACACAUCGUAUGUACCGAAUCGGGGCCCCCGGGGCCCCCGGGCCCCCGGAAAGUAUUAUGUUACGCCGUUCGGAUCUGCAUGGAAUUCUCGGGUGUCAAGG: -1.65

Excerpt of the above (block 4):
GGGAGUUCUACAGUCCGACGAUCCUGUGCUACACAUCGUAUGUACCGAAUCGGGGCCCCCCGGGGCCCCCCGGGCCCCCCGGGGAAAGUAUUAUGUUACGCCGUUCGGAUCUGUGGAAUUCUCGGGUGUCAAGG: -1.77
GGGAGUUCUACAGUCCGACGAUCAAGUCCUGUGCUACACAUCGUAUGUACCGAAUCGGGCCCCGGCCCCGGGCCCCGGGAAAGUAUUAUGUUACGCCGUUCGGAUCUGCACUUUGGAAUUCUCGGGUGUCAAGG: -2.03
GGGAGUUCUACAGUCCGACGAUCAGUCCUGUGCUACACAUCGUAUGUACCGAAUCGGGAAAAAGGGUGGGAAAAAAAGGGAAAGUAUUAUGUUACGCCGUUCGGAUCUGCACUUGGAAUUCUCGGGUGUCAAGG: -0.634
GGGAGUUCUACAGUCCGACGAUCUGGCCCUGGUGGCAUGCGGGGAGGAAGACGUGGCCUCAUGGAUCGUGGUGGUCCCGGUGGAAUGUUCAGAGGUGGCCGUGGUGGAGACAGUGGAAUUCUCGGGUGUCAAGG: 0.286
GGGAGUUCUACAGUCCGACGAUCACCAUGCAGGUGGGCAUCUUUGGGAAGUGGGGCAAGGGGGGGAUAGGGGGGGGGGUAACACUUUGGGAACAGGUGGUCCCAGGUCGUUUCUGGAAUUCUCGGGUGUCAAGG: -0.144
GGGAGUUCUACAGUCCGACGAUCCACAGACAACACGCACCCACACAGAGACAGAGGGAAGGGGUUGGGAUGGGGACAGGGUGCACAGCAGGGCGGGGUAGGACCCCAGCCCCUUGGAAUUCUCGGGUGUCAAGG: 0.823
